Experimental data gathered from unrelated publications.
Numbered parts are unrelated; each lists some results of a single study.

Study 1
Target: Ras GTPase-activating protein-binding protein 1, RRM domain (G3BP1, Homo sapiens, UniProt Q13283)
Chain of UniProt Q13283 (whole entry, looked up): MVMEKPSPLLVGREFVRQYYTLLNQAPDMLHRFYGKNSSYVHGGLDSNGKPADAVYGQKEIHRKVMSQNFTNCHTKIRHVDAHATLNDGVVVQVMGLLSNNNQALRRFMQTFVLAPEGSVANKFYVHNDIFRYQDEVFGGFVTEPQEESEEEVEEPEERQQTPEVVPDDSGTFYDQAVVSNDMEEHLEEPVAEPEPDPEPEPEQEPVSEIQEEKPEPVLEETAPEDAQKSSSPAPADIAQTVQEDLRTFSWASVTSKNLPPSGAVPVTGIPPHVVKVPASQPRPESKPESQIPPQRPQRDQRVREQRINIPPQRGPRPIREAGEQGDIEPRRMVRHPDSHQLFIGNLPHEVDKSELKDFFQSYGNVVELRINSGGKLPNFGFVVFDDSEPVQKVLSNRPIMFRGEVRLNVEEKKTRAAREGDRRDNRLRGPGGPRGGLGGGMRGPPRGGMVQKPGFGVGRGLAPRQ
Technique: RNA Bind-n-Seq
Molecule type: RNA
Medium: in vitro
Concentration: 1 µM
Notes: whole 134-nt RNA, ends assumed
Together with: 150 mM KCl
Baseline: input library
Reading: higher = stronger binding
Strand | log2 enrichment
GGGAGUUCUACAGUCCGACGAUCCACAGACAACACGCACCCACGCAGACACAGAGGGAAGGGGUUGGGAUGGGGACAGGGUGCACAGCAGGGCGGGGUAGGACCCCAGCCCCUUGGAAUUCUCGGGUGUCAAGG | -0.0317
GGGAGUUCUACAGUCCGACGAUCAGUCCUGUGCUACACAUCGUAUGUACCGAAUCGGGAGGGAAAAAGGGUUUUUUUGGGAAAGUAUUAUGUUACGCCGUUCGGAUCUGCACUUGGAAUUCUCGGGUGUCAAGG | 0.507
GGGAGUUCUACAGUCCGACGAUCCUGUGCUACACAUCGUAUGUACCGAAUCGGGAAAAAAAGGGGAAAAAAAGGGAAAAAAAGGAAAGUAUUAUGUUACGCCGUUCGGAUCUGUGGAAUUCUCGGGUGUCAAGG | 0.127

Study 2
Target: Sal-like protein 4, full length isoform A (SALL4, Homo sapiens, UniProt Q9UJQ4, residues 1-1053)
Chain of UniProt Q9UJQ4 (whole entry, looked up): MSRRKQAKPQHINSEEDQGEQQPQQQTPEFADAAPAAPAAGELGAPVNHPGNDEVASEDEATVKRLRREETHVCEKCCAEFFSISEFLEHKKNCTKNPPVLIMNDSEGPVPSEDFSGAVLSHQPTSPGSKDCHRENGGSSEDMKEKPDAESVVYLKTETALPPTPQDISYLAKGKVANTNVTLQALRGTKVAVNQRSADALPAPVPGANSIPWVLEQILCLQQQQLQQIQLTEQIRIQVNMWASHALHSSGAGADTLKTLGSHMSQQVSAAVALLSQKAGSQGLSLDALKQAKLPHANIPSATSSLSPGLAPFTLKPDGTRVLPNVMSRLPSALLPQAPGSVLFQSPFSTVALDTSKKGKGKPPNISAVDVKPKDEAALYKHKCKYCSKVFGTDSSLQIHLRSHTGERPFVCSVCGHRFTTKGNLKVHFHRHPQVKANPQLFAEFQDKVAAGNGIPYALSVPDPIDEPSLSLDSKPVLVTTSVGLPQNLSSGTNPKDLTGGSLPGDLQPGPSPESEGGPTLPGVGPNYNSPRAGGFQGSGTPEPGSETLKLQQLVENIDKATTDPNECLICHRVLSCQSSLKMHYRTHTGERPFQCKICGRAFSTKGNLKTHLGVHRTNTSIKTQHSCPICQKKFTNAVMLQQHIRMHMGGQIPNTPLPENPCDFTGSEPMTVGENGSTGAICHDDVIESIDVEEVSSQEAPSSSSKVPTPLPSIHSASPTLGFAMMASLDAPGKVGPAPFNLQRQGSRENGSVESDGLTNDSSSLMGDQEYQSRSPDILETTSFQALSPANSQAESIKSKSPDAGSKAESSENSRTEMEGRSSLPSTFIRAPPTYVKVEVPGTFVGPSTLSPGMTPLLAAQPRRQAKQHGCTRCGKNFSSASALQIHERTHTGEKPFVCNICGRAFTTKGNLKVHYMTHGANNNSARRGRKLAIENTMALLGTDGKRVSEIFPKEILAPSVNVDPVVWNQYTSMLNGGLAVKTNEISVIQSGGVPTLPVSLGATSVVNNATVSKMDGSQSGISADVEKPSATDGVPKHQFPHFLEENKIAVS
Technique: universal PBM
Molecule type: double-stranded DNA, one strand shown
Medium: in vitro
Concentration: 600 nM
Notes: 8-mer, flanks averaged, mean of replicates
Reading: higher = stronger binding
Strand | E-score
GAGGAGTA | -0.0233
ACGCCGGC | -0.289
CTGCTCAA | -0.102

Study 3
Target: Interferon regulatory factor 3, full length, phosphomimetic (IRF3, Homo sapiens, UniProt Q14653, residues 1-427, S386D/S396D/S398D/S402D/T404D/S405D)
Chain of UniProt Q14653 (whole entry, unmodified, looked up): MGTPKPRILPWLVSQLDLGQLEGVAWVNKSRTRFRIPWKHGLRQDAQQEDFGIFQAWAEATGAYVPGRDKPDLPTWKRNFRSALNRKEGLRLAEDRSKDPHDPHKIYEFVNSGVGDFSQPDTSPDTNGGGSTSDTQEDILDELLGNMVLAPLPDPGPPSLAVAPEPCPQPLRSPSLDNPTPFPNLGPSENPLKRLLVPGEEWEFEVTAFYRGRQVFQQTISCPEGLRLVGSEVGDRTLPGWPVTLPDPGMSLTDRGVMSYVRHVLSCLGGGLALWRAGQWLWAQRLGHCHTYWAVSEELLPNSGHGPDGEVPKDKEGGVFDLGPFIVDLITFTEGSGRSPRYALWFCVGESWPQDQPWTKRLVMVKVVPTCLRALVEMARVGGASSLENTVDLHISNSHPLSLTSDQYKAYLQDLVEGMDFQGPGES
Technique: protein-binding microarray
Molecule type: double-stranded DNA, one strand shown
Medium: in vitro
Concentration: 2540 nM top
Notes: 60-bp whole probe
Together with: salmon DNA 0.4 mg/ml
Baseline: random background probes
Reading: higher = stronger binding
Strand | fitted relative affinity [z-score]
GCCTAGCACTCAACATTCACCATGGCACTGTGCTAGGTCTTGATTCGCTTGACGCTGCTG | 0.033
GCCTAGCACTTAGGTTTCGGTTCCGGTGAGTGCTAGGTCTTGATTCGCTTGACGCTGCTG | 10.7
GCCTAGCACTTAGGTATTCTTATCCTTTAGTGCTAGGTCTTGATTCGCTTGACGCTGCTG | 1.01
GCCTAGCACGACGGTTTCCTTTTCCTGACGTGCTAGGTCTTGATTCGCTTGACGCTGCTG | 10.5

Other studies, line by line
Substance | target | assay | test system | conditions | how to read | quantity | value
PhoQ, residues 284 288 289 292 302 303 TNASYF | PhoP, residues 12 14 15 18 19 SPWRL (Escherichia coli, UniProt P23836) | Sort-seq, item: YFP reporter | E. coli | PhoQ-PhoP variant library, together with: 10 µM Mg2+ | baseline: high Mg2+ state, higher = stronger signaling | fold induction | 2.55

A few entries again (study 3):
Strand | fitted relative affinity [z-score]
GCCTAGCACTCAACATTCACCATGGCACTGTGCTAGGTCTTGATTCGCTTGACGCTGCTG | 0.033
